Measured values pooled from the literature.
A part holds a random share of what one study measured. Several values in a cell are separate wells, animals, samples, runs or records.

Set 1
Structure (SMILES): O=C1CCC(N2Cc3cc(C4CCN(Cc5ccccc5)CC4)ccc3C2=O)C(=O)N1 (stereo not shown)
Mode: degrader
Method: HiBiT
Cell line: HEK293
GSPT1: Eukaryotic peptide chain release factor GTP-binding subunit ERF3A (GSPT1, Homo sapiens, UniProt P15170)
UniProt P15170, sequence (whole entry, looked up): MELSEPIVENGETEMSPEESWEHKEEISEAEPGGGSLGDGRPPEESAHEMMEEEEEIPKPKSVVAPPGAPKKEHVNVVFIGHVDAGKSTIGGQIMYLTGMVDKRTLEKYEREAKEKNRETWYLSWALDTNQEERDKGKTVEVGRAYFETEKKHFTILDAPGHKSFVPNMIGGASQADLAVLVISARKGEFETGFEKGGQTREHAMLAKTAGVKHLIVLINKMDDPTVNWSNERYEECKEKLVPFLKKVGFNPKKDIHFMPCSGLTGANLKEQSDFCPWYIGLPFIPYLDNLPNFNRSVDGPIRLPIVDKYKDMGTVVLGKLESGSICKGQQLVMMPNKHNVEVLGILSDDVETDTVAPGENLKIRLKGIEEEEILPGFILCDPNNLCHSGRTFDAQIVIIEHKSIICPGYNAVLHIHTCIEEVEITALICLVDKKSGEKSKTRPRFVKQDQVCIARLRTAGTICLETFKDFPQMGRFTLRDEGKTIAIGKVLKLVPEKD
IKZF4: Zinc finger protein Eos (IKZF4, Homo sapiens, UniProt Q9H2S9)
UniProt Q9H2S9, sequence (whole entry, looked up): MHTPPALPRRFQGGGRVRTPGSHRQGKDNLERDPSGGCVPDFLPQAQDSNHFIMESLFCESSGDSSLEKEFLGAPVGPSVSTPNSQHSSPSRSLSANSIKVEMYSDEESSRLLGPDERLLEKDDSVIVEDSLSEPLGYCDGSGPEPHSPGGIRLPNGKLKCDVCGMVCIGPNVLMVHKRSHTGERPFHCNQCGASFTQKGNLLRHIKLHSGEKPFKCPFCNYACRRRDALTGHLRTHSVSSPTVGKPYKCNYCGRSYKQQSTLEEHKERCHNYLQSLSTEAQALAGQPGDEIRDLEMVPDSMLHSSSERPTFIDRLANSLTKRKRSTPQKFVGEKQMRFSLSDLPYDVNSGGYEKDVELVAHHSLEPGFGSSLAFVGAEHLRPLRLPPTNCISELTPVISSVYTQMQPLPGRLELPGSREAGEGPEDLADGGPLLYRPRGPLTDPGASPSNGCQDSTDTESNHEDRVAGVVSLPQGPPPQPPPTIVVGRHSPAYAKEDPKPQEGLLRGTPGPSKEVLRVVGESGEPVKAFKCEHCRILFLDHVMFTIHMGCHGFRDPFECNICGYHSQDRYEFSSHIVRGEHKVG
| target | setting | remaining protein |
| --- | --- | --- |
| GSPT1 | 0.001524 µM | 114% and 86.8% |
| IKZF4 | 1 µM, 3 h | 124% |
| Zinc finger protein Aiolos (Homo sapiens, UniProt Q9UKT9) | 3.333 µM | 83.1% and 82.8% |
| IKZF4 | 5.08e-05 µM, 6 h | 112% |
| IKZF4 | 0.1111 µM, 3 h | 112% |
| Sal-like protein 4 (SALL4, Homo sapiens, UniProt Q9UJQ4) | 0.01372 µM | 59.7% and 60.7% |
| IKZF4 | 0.001372 µM, 3 h | 113% |
| GSPT1 | 0.004572 µM, 6 h | 89.1% |

Set 2
Target: Vascular endothelial growth factor receptor 3 (FLT4, Homo sapiens, UniProt P35916)
UniProt P35916, sequence (whole entry, looked up): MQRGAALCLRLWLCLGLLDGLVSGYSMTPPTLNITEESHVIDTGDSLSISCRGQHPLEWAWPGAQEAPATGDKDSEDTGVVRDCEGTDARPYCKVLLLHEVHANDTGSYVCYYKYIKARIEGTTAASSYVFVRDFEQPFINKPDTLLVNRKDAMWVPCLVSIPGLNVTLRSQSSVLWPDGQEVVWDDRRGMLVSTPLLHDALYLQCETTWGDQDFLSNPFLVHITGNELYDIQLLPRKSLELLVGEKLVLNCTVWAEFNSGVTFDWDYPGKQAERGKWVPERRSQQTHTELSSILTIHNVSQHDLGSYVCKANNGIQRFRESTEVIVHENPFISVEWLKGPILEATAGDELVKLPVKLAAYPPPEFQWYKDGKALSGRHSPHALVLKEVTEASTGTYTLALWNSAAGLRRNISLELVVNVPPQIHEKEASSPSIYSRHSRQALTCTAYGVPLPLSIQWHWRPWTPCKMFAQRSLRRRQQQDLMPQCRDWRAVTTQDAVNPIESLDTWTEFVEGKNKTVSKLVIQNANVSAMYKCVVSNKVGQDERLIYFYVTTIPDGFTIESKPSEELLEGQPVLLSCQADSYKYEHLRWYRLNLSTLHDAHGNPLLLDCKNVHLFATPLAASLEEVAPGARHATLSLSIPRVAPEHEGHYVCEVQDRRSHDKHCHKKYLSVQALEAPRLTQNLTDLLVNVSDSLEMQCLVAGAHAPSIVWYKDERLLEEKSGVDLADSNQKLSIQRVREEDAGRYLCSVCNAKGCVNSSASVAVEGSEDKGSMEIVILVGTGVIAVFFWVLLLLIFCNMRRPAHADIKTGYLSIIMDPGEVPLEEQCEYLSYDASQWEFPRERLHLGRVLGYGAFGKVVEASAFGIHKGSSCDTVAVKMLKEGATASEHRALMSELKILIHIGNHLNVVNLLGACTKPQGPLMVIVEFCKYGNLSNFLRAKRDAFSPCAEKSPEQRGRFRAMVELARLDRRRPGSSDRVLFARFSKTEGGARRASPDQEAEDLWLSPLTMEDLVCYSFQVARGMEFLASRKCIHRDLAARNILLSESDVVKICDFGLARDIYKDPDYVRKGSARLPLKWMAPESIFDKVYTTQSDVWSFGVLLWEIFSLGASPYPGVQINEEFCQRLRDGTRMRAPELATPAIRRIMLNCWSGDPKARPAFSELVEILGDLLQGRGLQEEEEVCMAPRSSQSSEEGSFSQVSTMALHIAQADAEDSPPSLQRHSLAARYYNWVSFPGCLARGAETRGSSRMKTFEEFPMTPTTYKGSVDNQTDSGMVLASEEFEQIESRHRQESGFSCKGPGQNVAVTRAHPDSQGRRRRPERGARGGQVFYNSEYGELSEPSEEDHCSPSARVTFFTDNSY
Read-out: enzyme activity
Mode: inhibitor
Concentration: 0.5 µM
Relative to: control
| Structure (SMILES) | remaining activity [%] |
| --- | --- |
| Cc1ccc(NC(=O)c2ccc(CN3CCN(C)CC3)cc2)cc1Nc1nc(-c2cccnc2)cs1 | 100 |
| CCOC(=O)c1c(C)[nH]c(/C=C2\C(=O)Nc3ccccc32)c1C | 79.2 |
| COc1cc2ncnc(Nc3ccc(F)c(Cl)c3)c2cc1OCCCN1CCOCC1 | 92.2 |
| Cn1c2ccccc2c2c3c(c4c5ccccc5n(CCC#N)c4c21)CNC3=O | 38.2 |
| COc1ccc(OC)c2c(=S)c3ccccc3[nH]c12 | 98.1 |
| OCC(O)CCON=C1C(c2c(O)[nH]c3ccccc23)=Nc2ccccc21 (stereo not shown) | 22.3 |
| Nc1ncnc2n[nH]c(Nc3ccc(F)cc3)c12 | 92.9 |
| Nc1[nH]nc2nc3ccccc3nc12 | 117 |
| COc1ccc(C(=O)Nc2sc3c(c2C(N)=O)CCCC3)cc1OC | 110 |
| O=C(Nc1cccc(Nc2cc(Nc3cccc(C(F)(F)F)c3)ncn2)c1)C1CC1 | 107 |
| O=C1NC(=O)C(c2cn(CCCO)c3ncccc23)=C1c1cnccn1 | 92.3 |
| O=C(CCCc1ccc(-c2ccccc2F)cc1)Nc1ccc(O)cc1 | 99.3 |
| Cc1cccc(-c2[nH]c(C(C)(C)C)nc2-c2ccc3c(c2)OCO3)n1 | 99.8 |
| O=C1NC(=O)C(c2cn(CCCn3ccnc3)c3ccccc23)=C1Nc1ccccc1 | 95.8 |
| CO[C@H]1C[C@@H]2CC[C@@H](C)[C@@](O)(O2)C(=O)C(=O)N2CCCC[C@H]2C(=O)O[C@H]([C@H](C)C[C@@H]2CC[C@@H](O)[C@H](OC)C2)CC(=O)[C@H](C)/C=C(\C)[C@@H](O)[C@@H](OC)C(=O)[C@H](C)C[C@H](C)/C=C/C=C/C=C/1C | 116 |

Set 3
SMILES: CO[C@@H](C)c1c(Nc2ccc([C@@H](N(C)C(=O)C3CCS(=O)(=O)CC3)C(F)(F)F)cc2)cnc2cc(Cl)nn12
Read-out: cell-free assay
Method: competition with immobilised ligand
Concentration: 1 µM
| target | remaining binding |
| --- | --- |
| CAMKK1 (Homo sapiens, UniProt Q8N5S9) | 98% |
| MET (Homo sapiens, UniProt P08581) | 85% |
| Ribosomal protein S6 kinase alpha-4, C-terminal kinase domain (RPS6KA4, Homo sapiens, UniProt O75676) | 100% |
| STK25 (Homo sapiens, UniProt O00506) | 84% |
| Ribosomal protein S6 kinase alpha-1, N-terminal kinase domain (RPS6KA1, Homo sapiens, UniProt Q15418) | 65% |
| FGFR3 (Homo sapiens, UniProt P22607) | 90% |
| FGFR2 (Homo sapiens, UniProt P21802) | 84% |
| PRKAA1 (Homo sapiens, UniProt Q13131) | 92% |
| EGFR (Homo sapiens, UniProt P00533, del752-759) | 93% |

Set 4
Target: DNA polymerase theta, ATPase domain (POLQ, Homo sapiens, UniProt O75417)
UniProt O75417, sequence (whole entry, unmodified, looked up): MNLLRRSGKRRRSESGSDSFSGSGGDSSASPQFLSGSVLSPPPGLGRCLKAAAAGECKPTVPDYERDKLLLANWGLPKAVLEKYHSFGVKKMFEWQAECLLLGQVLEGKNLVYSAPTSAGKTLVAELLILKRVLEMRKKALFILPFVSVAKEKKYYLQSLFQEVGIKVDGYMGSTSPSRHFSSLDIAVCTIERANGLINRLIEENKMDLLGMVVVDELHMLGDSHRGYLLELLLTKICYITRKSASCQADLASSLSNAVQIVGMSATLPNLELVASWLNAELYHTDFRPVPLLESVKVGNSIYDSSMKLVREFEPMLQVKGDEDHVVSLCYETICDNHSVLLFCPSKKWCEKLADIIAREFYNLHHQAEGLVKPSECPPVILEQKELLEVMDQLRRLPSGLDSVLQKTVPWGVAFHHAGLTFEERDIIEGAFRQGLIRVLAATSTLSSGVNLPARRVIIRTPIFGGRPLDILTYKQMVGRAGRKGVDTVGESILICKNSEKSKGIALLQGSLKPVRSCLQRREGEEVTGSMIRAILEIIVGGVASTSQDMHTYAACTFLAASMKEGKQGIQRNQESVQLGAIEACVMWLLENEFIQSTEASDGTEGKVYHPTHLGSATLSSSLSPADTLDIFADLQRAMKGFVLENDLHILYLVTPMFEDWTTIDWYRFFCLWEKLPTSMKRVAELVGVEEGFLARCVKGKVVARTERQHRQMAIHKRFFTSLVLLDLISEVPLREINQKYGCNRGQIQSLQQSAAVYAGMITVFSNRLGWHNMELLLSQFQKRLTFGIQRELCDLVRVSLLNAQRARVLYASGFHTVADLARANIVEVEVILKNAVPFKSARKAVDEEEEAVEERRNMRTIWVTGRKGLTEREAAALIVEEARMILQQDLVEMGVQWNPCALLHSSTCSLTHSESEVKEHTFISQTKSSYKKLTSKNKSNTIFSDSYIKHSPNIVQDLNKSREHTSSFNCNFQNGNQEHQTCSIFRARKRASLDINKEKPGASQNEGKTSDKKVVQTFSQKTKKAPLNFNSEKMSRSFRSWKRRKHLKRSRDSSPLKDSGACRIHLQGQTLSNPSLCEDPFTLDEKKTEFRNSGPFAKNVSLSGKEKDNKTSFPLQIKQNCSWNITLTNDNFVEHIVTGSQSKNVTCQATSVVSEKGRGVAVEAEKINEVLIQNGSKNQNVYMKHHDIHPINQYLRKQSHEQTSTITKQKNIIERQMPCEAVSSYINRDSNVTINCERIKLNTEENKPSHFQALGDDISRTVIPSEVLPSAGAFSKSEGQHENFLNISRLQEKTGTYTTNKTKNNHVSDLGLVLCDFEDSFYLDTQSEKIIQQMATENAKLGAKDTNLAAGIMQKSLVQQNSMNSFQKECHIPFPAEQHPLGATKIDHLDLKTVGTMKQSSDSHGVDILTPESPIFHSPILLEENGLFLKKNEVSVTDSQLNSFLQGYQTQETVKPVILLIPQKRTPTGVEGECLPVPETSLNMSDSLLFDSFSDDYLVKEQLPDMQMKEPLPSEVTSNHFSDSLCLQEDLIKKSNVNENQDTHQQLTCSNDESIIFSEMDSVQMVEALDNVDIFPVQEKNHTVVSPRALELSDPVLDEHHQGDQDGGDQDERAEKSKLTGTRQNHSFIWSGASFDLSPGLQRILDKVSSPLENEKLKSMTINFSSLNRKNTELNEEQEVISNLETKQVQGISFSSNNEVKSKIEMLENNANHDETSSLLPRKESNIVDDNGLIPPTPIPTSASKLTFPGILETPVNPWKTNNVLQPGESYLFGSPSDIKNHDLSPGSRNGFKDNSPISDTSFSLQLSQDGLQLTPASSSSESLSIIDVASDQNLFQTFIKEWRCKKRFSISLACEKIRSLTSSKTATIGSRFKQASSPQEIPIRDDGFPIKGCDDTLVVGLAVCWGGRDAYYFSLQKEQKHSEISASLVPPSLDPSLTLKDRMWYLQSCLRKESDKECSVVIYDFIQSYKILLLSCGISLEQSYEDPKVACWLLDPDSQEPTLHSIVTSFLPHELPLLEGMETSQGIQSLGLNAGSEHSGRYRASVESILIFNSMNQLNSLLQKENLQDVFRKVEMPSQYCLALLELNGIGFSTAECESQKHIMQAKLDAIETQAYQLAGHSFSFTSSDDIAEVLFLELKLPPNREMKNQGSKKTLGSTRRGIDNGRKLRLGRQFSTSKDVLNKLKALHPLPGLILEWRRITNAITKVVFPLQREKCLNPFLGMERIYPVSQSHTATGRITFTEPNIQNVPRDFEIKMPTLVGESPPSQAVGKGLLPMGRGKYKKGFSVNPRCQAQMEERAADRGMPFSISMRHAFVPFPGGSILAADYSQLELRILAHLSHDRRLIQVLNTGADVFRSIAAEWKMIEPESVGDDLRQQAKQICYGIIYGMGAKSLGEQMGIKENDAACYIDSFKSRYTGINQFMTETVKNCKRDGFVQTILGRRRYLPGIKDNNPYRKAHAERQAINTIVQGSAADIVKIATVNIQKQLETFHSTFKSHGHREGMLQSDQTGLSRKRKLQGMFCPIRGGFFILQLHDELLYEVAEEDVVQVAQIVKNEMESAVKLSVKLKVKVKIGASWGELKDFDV
Read-out: enzyme activity
Mode: inhibitor
Concentration: 77 µM
Relative to: untreated
| Compound | remaining activity |
| --- | --- |
| CSc1cccc(Nc2ncc3cc(-c4c(Cl)cccc4Cl)c(=O)n(C)c3n2)c1 | 104% |
| CCCCCN(C)CCC(O)(P(=O)(O)O)P(=O)(O)O | 96.2% |
| CCCNC(C)(C)COC(=O)c1ccccc1 | 102% |
| Cc1cnc(-c2cc(N3CCN(C(=O)CCS(C)(=O)=O)CC3)ncc2Cl)c(C)c1 | 90.3% |
| COc1cc(/C=C/C(=O)N2CCN(CC(=O)N3CCCC3)CC2)cc(OC)c1OC | 104% |
| CC(=O)O[C@]1(C(C)=O)CC[C@H]2[C@@H]3C=C(C)C4=CC(=O)CC[C@@H]4[C@H]3CC[C@@]21C | 88.9% |
| Cc1cccc(C2CN(C)CCc3c2cc(O)c(O)c3Cl)c1 (stereo not shown) | 98.2% |
| CCN1CCCC1CNC(=O)c1cc(S(=O)(=O)CC)c(N)cc1OC (stereo not shown) | 105% |

Repeated from above (set 2):
| Structure (SMILES) | remaining activity [%] |
| --- | --- |
| O=C(CCCc1ccc(-c2ccccc2F)cc1)Nc1ccc(O)cc1 | 99.3 |
| Cc1cccc(-c2[nH]c(C(C)(C)C)nc2-c2ccc3c(c2)OCO3)n1 | 99.8 |
| O=C1NC(=O)C(c2cn(CCCn3ccnc3)c3ccccc23)=C1Nc1ccccc1 | 95.8 |
